Measured values pooled from the literature.
Parts stem from different laboratories: compare values within a part only.

Block 1 — technique: protein-binding microarray; form: double-stranded DNA, one strand shown; medium: in vitro; concentration: 250 nM; notes: 60-bp whole probe; added: salmon DNA 0.4 mg/ml; baseline: random background probes; direction: higher = stronger binding; shared flanks, not repeated: GCCTAGCAC … GTCTTGATTCGCTTGACGCTGCTG
Target: Interferon regulatory factor 5, full length, phosphomimetic (IRF5, Homo sapiens, UniProt Q13568-2, residues 1-514, K96S/S451D/S453D/S456D/S462D)
Oligonucleotide	log fluorescence [z-score]
GACGATTTCAGACTGGAAACGTGCTAG	0.243
CACAGAATCCCCTTCTACTCGTGCTAG	-0.17
TTAGGACTGGGTATCGGTCAGTGCTAG	3.13
GCTGTCATCGATTTCTTCCCGTGCTAG	0.701
TTAGAATTGAGTTTCGATTAGTGCTAG	9.62
CACGGTCTCCTTCTCCTGACGTGCTAG	-0.0176
TTAGAGTTCGGGTATCGATTAGTGCTA	3.33
GACGATATCGGCACTGGAGACGTGCTA	0.919
TTGAAAAAATATTTATTTCAGTGCTAG	1.36
GACGAACTGGGGTATGGAGACGTGCTA	-0.414
TTACGTTTCCTTTCCCTTTAGTGCTAG	3.09
GACGGACTGCTTAACCTGACGTGCTAG	-0.214
TTAGGTTTCAGTTCCGATTAGTGCTAG	4.75
GCACTCTTCTTTTTTTTCTTGTGCTAG	0.869
GACGGAGTGCTTATCCTGACGTGCTAG	-0.564
CACGATCTCAGTATCGAGACGTGCTAG	1.53
GACGGACTGCTGTTCCTGACGTGCTAG	-0.715
TTAGGTTTAGGACTGGGTTAGTGCTAG	-0.118
TTAGGACTGGGTATCGGATAGTGCTAG	0.692

Block 2 — technique: RNA Bind-n-Seq; form: RNA; medium: in vitro; concentration: 365 nM; baseline: no-protein control; direction: higher = stronger binding
Target: RNA binding protein fox-1 homolog 2, RRM domain, GST-SBP tag (RBFOX2, Homo sapiens, UniProt O43251-10, residues 100-194)
Notes: natural RNA segment, single round, ends assumed
Target sequence (chain): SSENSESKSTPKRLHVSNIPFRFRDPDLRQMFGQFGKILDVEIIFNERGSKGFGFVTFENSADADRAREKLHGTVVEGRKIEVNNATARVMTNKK
Oligonucleotide	RBNS enrichment (R)
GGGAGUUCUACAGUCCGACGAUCCUGAAAGAAGGGUUUUCUGUGCUGUGAAAUGCAUAGAACUUACACUUUGCCGUGCACGACUGUUCCUGCAAUUGAUAUUGUGUGAAACCUGGGAGGGUGGUCUUUGGGUGUGGAAUUCUCGGGUGCCAA	0.863
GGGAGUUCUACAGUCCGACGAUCUACAAUUGCCCCUUUUUAUAUAUACACCUCCACAAGACAUGCGUAUUAAACAGAUUGUCUCAUCGUUGCAUCUAUUUUCCAUGUAUUCAUCAAGAGACCAUUUUAUGACAUGGAAUUCUCGGGUGCCAA	0.689
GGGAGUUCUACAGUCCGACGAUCGCACUUUCAGUCCAAUAGGUGUAGGAAAUAGCGCUGUUUUUGUUGUGUGUGCAGGGAGGGCAGUUUUCUAAUGGAAUGGUUUGGGAAUAUCCAUGUACUUGUUUGCAAGCUGGAAUUCUCGGGUGCCAA	1.58
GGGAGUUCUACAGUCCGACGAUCCCUCAUAACUCUACCACCAUUAUAAUGGAUCUAUAUAAAAUUGCUUAAUAUCAGUAGCCUAAAUUUAGGAGCACUAUAGUUUUAAAAAUACUUAAUUGGCUACUUUAUUUUGGAAUUCUCGGGUGCCAA	1.05
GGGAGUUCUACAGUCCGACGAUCAGAAUGAGGGAAAUUGCUAUUUUAUUUGUAUUCAUGAACUUGGCUGUAAUCAGUUAUGCCGUAUAGGAUGUCAGACAAUACCACUGGUUAAAAUAAAGCCUAUUUUUCAAUGGAAUUCUCGGGUGCCAA	1.85
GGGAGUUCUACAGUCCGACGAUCUCCUUUUUUUUAACCAUCUGAUACUAAGAAGAUGAAUUUGCACAGAUUUCUCUGCAUAAUUUCUCAAUAUCUUUAGCACAGUAUGGUGAUGAUGACUUUUAAGCAUUUACUGGAAUUCUCGGGUGCCAA	0.513
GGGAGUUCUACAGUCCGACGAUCACUAAAACUUUGCAGUAAAAUACCUAUUUCUACAAAGCAAGGUUUGCCUGCCUCGGUUGGGGAAACCUAGUGGUUUUGUCACACUAGUCGAUGUAUGAUGUUAGUGUUGUUGGAAUUCUCGGGUGCCAA	0.344
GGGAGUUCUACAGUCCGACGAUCAACCAGGAGGCUUCGAAAAGCAGCGUCUCUGGCAGUCAAGAUAAAAAAGUUGAUAUUGUGUUUUGUGGGACUGUAUAUGUUGUCAUUUUUAAAGGGGGGAAAUAACAUCCUGGAAUUCUCGGGUGCCAA	1.35

Block 3 — technique: RNA Bind-n-Seq; form: RNA; medium: in vitro; concentration: 200 nM; notes: whole 134-nt RNA, ends assumed; added: 150 mM KCl; baseline: input library; direction: higher = stronger binding
Target: Fragile X messenger ribonucleoprotein 1, C-terminal low-complexity region (Fmr1, Mus musculus, UniProt P35922)
Oligonucleotide	log2 enrichment
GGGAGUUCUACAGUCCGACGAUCUCAAGUCCUGUGCUACACAUCGUAUGUACCGAAUCGGCCGGGGCCGGGGCCGGGGAAAGUAUUAUGUUACGCCGUUCGGAUCUGCACUUCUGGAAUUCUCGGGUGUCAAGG	-0.568
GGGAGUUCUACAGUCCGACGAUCGUCCUGUGCUACACAUCGUAUGUACCGAAUCGGGGAGGGGUUUGGGGAAAAAAAGGGGAAAGUAUUAUGUUACGCCGUUCGGAUCUGCACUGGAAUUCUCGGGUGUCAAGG	0.353
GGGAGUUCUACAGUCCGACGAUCUGGCCCUGGUGGCAUGCGGGGAGGAAGAGGUGGCCUCAUGGAUCGUGGUGGUCCCGGUGGAAUGUUCAGAGGCGGCCGUGGUGGAGACAGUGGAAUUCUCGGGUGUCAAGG	-0.173
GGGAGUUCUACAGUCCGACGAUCUAACUUUAGAGGAGGAUAUGAUGGAUAUGGCAGUGGACGUGGAUUUGGGGAUGGCUAUAAUGGGUAUGGAGGAGGACCUGGAGGUGGCAAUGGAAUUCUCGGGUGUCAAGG	0.498
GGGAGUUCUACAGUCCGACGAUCCCUGUGCUACACAUCGUAUGUACCGAAUCGGGGCCCCCCGGCCCCCCGGGCCCCCCGGGGAAAGUAUUAUGUUACGCCGUUCGGAUCUGCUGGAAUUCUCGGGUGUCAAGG	-0.357
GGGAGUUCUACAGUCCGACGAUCCAAGUCCUGUGCUACACAUCGUAUGUACCGAAUCGGGGUUUGGUUUGGGGUUUGGGAAAGUAUUAUGUUACGCCGUUCGGAUCUGCACUUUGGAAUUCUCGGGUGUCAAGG	0.607
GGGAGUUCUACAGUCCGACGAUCCUGUGCUACACAUCGUAUGUACCGAAUCGGGGAAAAAAAGGGGUUUGGGGUUUUUUUGGGGAAAGUAUUAUGUUACGCCGUUCGGAUCUGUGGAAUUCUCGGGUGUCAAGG	0.0438
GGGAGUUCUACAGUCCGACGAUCCACAGACAACACGCACCCACACAGACACAGAGGGAUGGGGUUGGGAUGGGGACAGGGUGCACAGCAGGGCGGGGUAGGACCCCAGCCCCUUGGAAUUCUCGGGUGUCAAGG	1.36
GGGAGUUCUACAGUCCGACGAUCUCAAGUCCUGUGCUACACAUCGUAUGUACCGAAUCGGGGUUGGUUGGGGUUGGGAAAGUAUUAUGUUACGCCGUUCGGAUCUGCACUUCCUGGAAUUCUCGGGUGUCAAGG	0.889

Block 4 — technique: protein binding microarray; form: double-stranded DNA, one strand shown; medium: in vitro; concentration: not given; baseline: not given; direction: higher = stronger binding
Target: Histone acetyltransferase KAT6A, both winged helices, GST fusion (KAT6A, Homo sapiens, UniProt Q92794, residues 1-181)
Notes: 8-mer, flanks averaged, mean of 2 arrays, mostly near background
Target sequence (chain): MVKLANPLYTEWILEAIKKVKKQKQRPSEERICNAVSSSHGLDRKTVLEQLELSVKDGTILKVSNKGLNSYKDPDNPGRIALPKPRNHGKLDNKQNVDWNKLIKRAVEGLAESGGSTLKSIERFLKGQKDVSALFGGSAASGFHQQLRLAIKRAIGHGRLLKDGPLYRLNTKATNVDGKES
Oligonucleotide	E-score
ATCGAACA	-0.0645
ATTGTGAC	-0.087
GGAGGGTA	-0.0284
AAGATAAC	-0.0732
CTCCTACA	-0.182
AAAGCTAT	-0.0136
AATGGTGC	-0.0928
ATCGATTG	-0.0829
AGCGTGAT	0.0974
CGACAGTA	0.0445
CCCAACGG	-0.00421
GGATCTTA	-0.0377
ACGCAAGG	-0.113
ACTCCCAG	-0.144
ACTGGTGG	-0.209
GAGTTCAC	-0.109

Excerpt of the above (block 4):
Oligonucleotide	E-score
CTCCTACA	-0.182
ACGCAAGG	-0.113
GAGTTCAC	-0.109
AAAGCTAT	-0.0136
ATCGAACA	-0.0645
